Measurements from different studies.
Each numbered part is a random draw from the data of one study; scales do not carry over between parts.

Sample 1 — technique: universal PBM; molecule type: double-stranded DNA, one strand shown; matrix: in vitro; concentration: 600 nM; direction: higher = stronger binding
Target: Sal-like protein 4, full length isoform A (SALL4, Homo sapiens, UniProt Q9UJQ4, residues 1-1053)
Sequence of UniProt Q9UJQ4 (whole entry, looked up): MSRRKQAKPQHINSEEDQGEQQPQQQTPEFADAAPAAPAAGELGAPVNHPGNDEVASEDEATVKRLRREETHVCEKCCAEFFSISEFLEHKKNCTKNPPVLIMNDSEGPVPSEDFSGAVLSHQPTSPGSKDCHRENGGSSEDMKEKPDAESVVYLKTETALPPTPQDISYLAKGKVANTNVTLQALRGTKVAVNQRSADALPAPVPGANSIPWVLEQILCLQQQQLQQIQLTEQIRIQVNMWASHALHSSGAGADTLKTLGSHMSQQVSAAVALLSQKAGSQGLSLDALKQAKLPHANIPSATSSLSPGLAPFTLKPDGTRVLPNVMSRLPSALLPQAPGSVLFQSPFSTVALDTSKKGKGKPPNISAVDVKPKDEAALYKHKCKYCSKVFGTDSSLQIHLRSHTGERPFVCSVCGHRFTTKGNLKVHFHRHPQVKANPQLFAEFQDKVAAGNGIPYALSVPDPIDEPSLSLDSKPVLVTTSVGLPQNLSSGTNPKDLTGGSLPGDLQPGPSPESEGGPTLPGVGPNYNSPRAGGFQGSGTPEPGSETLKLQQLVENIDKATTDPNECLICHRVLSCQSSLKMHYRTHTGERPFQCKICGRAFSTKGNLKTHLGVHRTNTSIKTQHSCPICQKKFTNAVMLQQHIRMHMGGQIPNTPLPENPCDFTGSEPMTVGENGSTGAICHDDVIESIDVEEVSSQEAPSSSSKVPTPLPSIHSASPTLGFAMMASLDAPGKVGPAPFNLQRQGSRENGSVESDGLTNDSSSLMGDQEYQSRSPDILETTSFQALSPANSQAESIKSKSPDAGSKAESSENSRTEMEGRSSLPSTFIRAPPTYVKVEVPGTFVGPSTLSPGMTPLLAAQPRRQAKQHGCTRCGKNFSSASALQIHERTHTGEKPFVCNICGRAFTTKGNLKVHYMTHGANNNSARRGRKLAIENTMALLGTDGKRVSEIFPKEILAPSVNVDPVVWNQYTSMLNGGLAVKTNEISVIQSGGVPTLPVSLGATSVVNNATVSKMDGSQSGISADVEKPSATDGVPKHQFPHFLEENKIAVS
Setting: 8-mer, flanks averaged, mean of replicates
Sequence	E-score
CAAAAAGC	0.178
CAAGCGCC	-0.237
ACCTTCGC	-0.111
AGCGGAAC	-0.248
AATGCCCC	-0.225
TGGAAGAA	0.212
GACCAGTC	-0.309
ACCCCCCC	-0.414
AGGAACGA	-0.123
CTGTATAA	0.24
ACGACCTA	-0.0138
CCCGCCGA	-0.348
ACGGTACG	-0.139
CAAGCGGA	-0.199
CATCGACG	-0.211
ACATCGTC	0.0284
ATGGCGAA	0.105
CATAGGCA	0.113
ACGCAATC	-0.0238

Sample 2 — technique: RNA Bind-n-Seq; molecule type: RNA; matrix: in vitro; concentration: 365 nM; baseline: no-protein control; direction: higher = stronger binding
Target: RNA binding protein fox-1 homolog 2, RRM domain, GST-SBP tag (RBFOX2, Homo sapiens, UniProt O43251-10, residues 100-194)
Setting: natural RNA segment, single round, ends assumed
Constant ends, left off below: GGGAGUUCUACAGUCCGACGAUC … UGGAAUUCUCGGGUGCCAA
Residues (chain): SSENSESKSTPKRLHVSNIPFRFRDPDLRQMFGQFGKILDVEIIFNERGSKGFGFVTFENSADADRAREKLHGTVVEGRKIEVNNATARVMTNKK
Sequence	RBNS enrichment (R)
GGGCCAGAUGGAGAGCAGAUGUGGCAGGAAAUGGCACAGAGCUGAGUGAGGAGAAUGGGGAGUCCAUGGUUCAAGGUCAGAUGCGGCCACCAGCUGGCUUUGUGACCUUG	0.808
ACUAACUCUGGUGAAGGGUUUGGAAACCAUAUGUGGUUCUAGAAUUAACUCCCCUUUCCCUCAAACUCUCACGGCCUGAUGAUUGUCCCUCUCAGGGAUGAGACAUGGAC	0.456
AUAUUUUAUAAACCACUAGUGCCUUUGGGUUUCUUUGCCAAAAACUUAAGCCAGCCUCUAUCACCAAAAAAAAAGUCUCACCUCUAAUAAAUACACAUUUGCCAGGAAAA	0.691
AUGCUUCUCUUCUAUAUAACCCUCAUCUUCUCAUUUUAUGGGAUUCAACACAAAGUCUACUUAUGCUUCUUUGCAUUAUGGUUAAACAAUUAAAAAAAAAAAAAGGACUC	0.596
CCAAGCAGUCGAUGUCAAGGUUACGACACCAGUGACAGAGCAUGGUUUGGAAAUCCUUUAUUCUCUUUUCUCAAUACCAAGUGGUGCCUUACUGUGGCAGCAGUGUCACU	0.648
AGGUGCCUUGUAUUUUAAAUCUGUGACAAACCAUGGCAAAUUUUUAAAGGGGAAGUAUUAUUAUAAAAUGAAGAAAUAUGUAUUUCUAAAGGCUAUAUUGCUGUAAACUU	0.474
AGGGCUGAGGGGAAGGGGCUAUGAAUGUUUGUAUACAUGUUCACAGGGCACGGAAAAUCUUAUGCUGCUCCGUCAUAAACCUACACCAAUGCCCAGCAAUCACCCUCCUC	0.353
UAAUCAGCUGGGCGUGGUGGCUCACGCCUGUAAUCCCAGCACUUUGGGAGGCCAAGGUAGGUGGAUACCUGAGGUCAGGAGUUCAAGACCAGCCUGGCCAACAUGGUGAA	0.245
UUUACCAAAGGUCUAAGGCAUUUGGUUACUUAACCCAAAUAUCCUGAACUGUGCGUAAAGUAAUAGAGAAAAGCUUUAGGGUCUCAAUAGUGUCACCUGUGUAAAUCAAA	0.248

Sample 3 — technique: protein binding microarray; molecule type: double-stranded DNA, one strand shown; matrix: in vitro; concentration: not given; baseline: not given; direction: higher = stronger binding
Target: Histone acetyltransferase KAT6A, winged helix 2, GST fusion (KAT6A, Homo sapiens, UniProt Q92794, residues 85-181)
Setting: 8-mer, flanks averaged, mean of 2 arrays, mostly near background
Residues (chain): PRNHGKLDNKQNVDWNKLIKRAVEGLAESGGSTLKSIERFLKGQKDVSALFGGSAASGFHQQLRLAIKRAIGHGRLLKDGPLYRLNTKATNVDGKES
Sequence	E-score
CATGAAAA	-0.00153
CGCTTCTC	0.0513
AATATATA	-0.0804
GACGCCGC	0.256
CCGCGCTC	0.218
CACTCAAA	0.118
TCAGGAGA	0.132
AGTTAGAG	0.00247
AGATTTAG	0.126
GGGAGCCA	0.0413
CATGGCAA	0.0512
CAAACTCC	0.0762
GAACGCCC	0.0671
ACTTGGTA	-0.0497
ATTCGTAA	-0.0753
GTCAGTAA	-0.0114
CTATCCTA	-0.0652
GTTACGTA	-0.277
AGTCGGAC	-0.144
AGTACTAG	0.0825
AGATTTCG	0.12
ATTTCATC	0.127
CGTCGGAA	0.0316
GAAAGACC	-0.112
AACTATAA	-0.121

Sample 4 — technique: RNA Bind-n-Seq; molecule type: RNA; matrix: in vitro; concentration: 100 nM; baseline: input RNA pool; direction: higher = stronger binding
Target: RING finger protein unkempt homolog, zinc fingers 1-6, SBP tag (UNK, Homo sapiens, UniProt Q9C0B0, residues 30-357)
Sequence of UniProt Q9C0B0 (30-357, looked up): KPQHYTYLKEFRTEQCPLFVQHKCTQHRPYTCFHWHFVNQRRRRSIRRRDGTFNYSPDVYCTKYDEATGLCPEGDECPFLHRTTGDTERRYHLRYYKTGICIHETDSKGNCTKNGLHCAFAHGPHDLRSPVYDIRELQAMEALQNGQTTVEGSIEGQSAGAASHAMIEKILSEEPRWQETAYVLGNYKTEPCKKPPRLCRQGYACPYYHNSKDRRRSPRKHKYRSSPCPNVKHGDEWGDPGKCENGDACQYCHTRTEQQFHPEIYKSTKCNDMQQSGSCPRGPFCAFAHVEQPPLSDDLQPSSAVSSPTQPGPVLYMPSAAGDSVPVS
Setting: RNA with constant flanks, vertebrate orthologous sites, ends assumed
Constant ends, left off below: GGGAGUUCUACAGUCCGACGAUC … CAACAGAGGAUUGAGCAUCA
Sequence	bound/input enrichment
UACAAUCUUACACUUAAACUGGUAUUUUCAAGCAAUAGGACAUUUUCUUUUUUUACAGAUUAGUGUAUCUGGUUUCUACAUGGAAGACUAAACUCAUGCUUAUUGCUAAAUGUGGUCUUU	0.712 ratio
ACAGGAGCAGCAUAGGCUGUUUGAGCUUUGGGGAAAUGAGCUUUGCUUUUUAUAUUUAACUAGGAUACUUUUAUAUGAUGGGUGCUUUGAGUGUGAAUGCAGCAGGCUCUUUAUUUCUGA	1.5 ratio
GGCGCCGUCCUCCCACUCCGGCCCAGGCUCAGGGACCAGGUGUAGCUGGAGGACCUGCAUUUCAAACCGUUUUCUAAAUGGUCCAGGAAGAGAUGUGACGAAGACCGCAUCUCAAAGUCG	0.246 ratio
GUGACUUUGGAAGUCUGCAGUGUCUCAUUGCAGAUACUACUUAGCUCAGGGCCUGGUGGCUACACAGGUUCUUUCCUUUCCAGUCGGUGGCCUCUCCCGCAAACAUGCUCCGCCACAUCC	0.39 ratio
UAAUCUCUAAGCCAGGAACACUUGUAAAAUGCUAUUUAUUUGUGUCUGUAAGUUUGUACAUAAUACUAUCAACCUCAUAUUGUUCUUGAAUUAUUUGGGGGGGGGGGUGAGUUUGAGUUU	0.926 ratio
UCAUCUCUCAUUUUAUAUGUCCAAAUGGCUUUGAAUUUUUAAACAAUUGAUAGUUUUAAUUAGCUCUGCCCUCAUGAAGUAUACUUAUACUUCACCACAGAUAUAUGUCUGAUUACUUCA	0.789 ratio
UGCUGUUAAUGCACUGUAUACCAGGCAUCGUCUGACCUUAGUGUAAUCUAGGAGAUUUUAUAGUUUUAUUUUAAUGAAGUCUGGAUUGAGGCAAAGCUGAUAGGAGUCCGUAGUCUUUUA	2.69 ratio
GAAUUGAAAAACCAGAGCUUCACCCAGGCCCCUGUUCACUAGGAGAUGCAAAUAUUACAUUAGAAGAACAAUUAAACUCCAUAAAUUUAUCUUUUCAGGAUGAUCCAGAUUCCAGUACGA	1.3 ratio
UCUAUACAAUUUUAAAAAUACUUCCUCAUAGGAUGCUUUGGCCCUUCAUCUAUUUAAUCAUAGCUACAUACCUAUUUUUUAUAAGUAGCAGUACACAUUCAAAGGGGUAUUCCUAGCUCA	0.802 ratio
CCCUCUGAACCCCAUAUCUUCUGUCUCAUAGUGCAGAAGUAGUCUUUUCAAUUAUAUUAUUAAUGGACUUGUUUUAAUUUUAGGGAAACUUUCAGUACAGAUACUGUGAGCUUACAUGGA	3.59 ratio
UAUUGUAUGUAGAGAAAAAUUUUCAUUUUGACCCAUUGUGAAAUUCCCUAGCAGUUUAUUUAGAAUCUUAAUUUUUCUAAUUGAAGCUCACUGUAUUAGUCAUUUUUAGCCCAUAAUUAA	4.09 ratio

For quick reference, copied from above (sample 1):
Sequence	E-score
CTGTATAA	0.24
ACCCCCCC	-0.414
ACGCAATC	-0.0238
ACATCGTC	0.0284
GACCAGTC	-0.309
CATAGGCA	0.113
AGCGGAAC	-0.248
ATGGCGAA	0.105
